Results gathered from unrelated publications.
A part holds a random share of what one study measured. Substitutions count along the parent as printed.

Sample 1
Target: CREB5, bZIP domain (human)
Method: DHFR protein complementation
Matrix: yeast
Setting: single substitutions, most at no-binding floor
Baseline: wild-type JUN-FOS pair
Direction: higher = stronger binding
Parent: JUN, bZIP domain (human); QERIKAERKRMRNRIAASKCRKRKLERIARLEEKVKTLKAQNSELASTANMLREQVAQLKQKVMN; partner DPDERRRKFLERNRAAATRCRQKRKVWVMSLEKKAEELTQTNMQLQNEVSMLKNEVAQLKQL
| Variant | binding fitness [natural log] |
| --- | --- |
| L45D | -1.27 |
| T48N | -0.667 |
| L52R | -1.3 |
| N42H | -0.522 |
| S47I | -0.349 |
| K36E | -0.202 |
| E44P | -1.39 |
| L31E | -1.18 |

Sample 2
Sequence: DTFDEAFLAAVRSHQG
Molecule type: peptide
Direction: direction not given
| target or system | test | system | setting | enrichment score |
| --- | --- | --- | --- | --- |
| Saccharomyces cerevisiae | cell growth, competitive growth deep sequencing | – | peptide tiling library, together with: cyclin F-Cln2 fusion | 1.07 |
| Saccharomyces cerevisiae | pheromone growth arrest, yeast competitive growth sequencing | no Cln2 overexpression | peptide tiling library | 0.262 |
| – | peptide binding | yeast competitive growth | together with: B1-Cln2 chimera | 1.08 |
| Saccharomyces cerevisiae | binding, competitive growth deep sequencing | cyclin E1-Cln2 fusion strain | peptide tiling library | 2.24 |
| Cln2 (Saccharomyces cerevisiae) | peptide binding, competitive growth sequencing | Saccharomyces cerevisiae, unfused Cln2 strain | peptide tiling library | 1.08 |
| human cyclin A2 | competitive growth deep sequencing | Saccharomyces cerevisiae, cyclin A2-Cln2 fusion strain | peptide tiling library | 1.5 |
| Saccharomyces cerevisiae | cell growth, competitive growth deep sequencing | – | peptide tiling library, together with: cyclin E2-Cln2 fusion | 1.02 |

Sample 3
Target: Interferon regulatory factor 3, full length, phosphomimetic (IRF3, Homo sapiens, UniProt Q14653, residues 1-427, S386D/S396D/S398D/S402D/T404D/S405D)
Method: protein-binding microarray
Molecule type: double-stranded DNA, one strand shown
Matrix: in vitro
Concentration: 2540 nM top
Setting: 60-bp whole probe
Together with: salmon DNA 0.4 mg/ml
Baseline: random background probes
Direction: higher = stronger binding
Shared flanks, not repeated: GCCTAGCAC … GTCTTGATTCGCTTGACGCTGCTG
Target sequence (chain): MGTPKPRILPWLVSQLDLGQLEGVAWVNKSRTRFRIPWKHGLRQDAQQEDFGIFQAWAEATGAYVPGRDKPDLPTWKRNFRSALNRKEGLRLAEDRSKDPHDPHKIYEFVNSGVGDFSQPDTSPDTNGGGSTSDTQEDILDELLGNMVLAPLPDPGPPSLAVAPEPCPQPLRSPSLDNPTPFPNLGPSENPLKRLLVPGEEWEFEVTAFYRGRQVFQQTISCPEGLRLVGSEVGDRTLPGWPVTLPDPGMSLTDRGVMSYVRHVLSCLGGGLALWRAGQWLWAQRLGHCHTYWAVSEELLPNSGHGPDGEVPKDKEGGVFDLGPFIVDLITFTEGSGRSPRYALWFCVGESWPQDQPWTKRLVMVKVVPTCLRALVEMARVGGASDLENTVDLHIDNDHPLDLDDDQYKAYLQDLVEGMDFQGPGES
| Oligonucleotide | fitted relative affinity [z-score] |
| --- | --- |
| TCAATTTCCATTATTGCACTGTGCTAG | 3.66 |
| GACGGTTGCGGTATCGGGACGTGCTAG | 3.68 |
| TTAAGTATCCTTCTCCTTTAGTGCTAG | 8.23 |
| TTAGATTCCAGTTTCGATTCGTGCTAG | 6.39 |
| TTAGGTTTCCGTTCCCTTTAGTGCTAG | 8.42 |
| GACGGACAGGACTTTCGGGACGTGCTA | 0.262 |
| GTGGCCTTTGTTTCCAGGCAGTGCTAG | 0.953 |
| TTTTCACTTTCTTTAACATAGTGCTAG | 4.6 |

Sample 4
Target: Ras GTPase-activating protein-binding protein 1, full length (G3BP1, Homo sapiens, UniProt Q13283)
Chain of UniProt Q13283 (whole entry, looked up): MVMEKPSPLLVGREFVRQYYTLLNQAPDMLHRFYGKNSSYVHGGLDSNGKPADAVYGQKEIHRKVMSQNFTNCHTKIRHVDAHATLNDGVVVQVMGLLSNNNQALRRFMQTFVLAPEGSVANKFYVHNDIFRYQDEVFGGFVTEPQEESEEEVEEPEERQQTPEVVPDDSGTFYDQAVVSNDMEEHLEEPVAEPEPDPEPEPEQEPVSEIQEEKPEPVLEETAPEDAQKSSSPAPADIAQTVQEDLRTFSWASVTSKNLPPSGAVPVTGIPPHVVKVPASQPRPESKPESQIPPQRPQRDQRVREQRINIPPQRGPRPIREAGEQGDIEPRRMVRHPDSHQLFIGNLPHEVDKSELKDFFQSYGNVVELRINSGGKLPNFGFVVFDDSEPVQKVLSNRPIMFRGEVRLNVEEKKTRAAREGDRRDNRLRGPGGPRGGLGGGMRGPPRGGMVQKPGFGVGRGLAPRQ
Method: RNA Bind-n-Seq
Molecule type: RNA
Matrix: in vitro
Concentration: 200 nM
Setting: whole 134-nt RNA, ends assumed
Together with: 150 mM LiCl
Baseline: input library
Direction: higher = stronger binding
All molecules: 7-deaza-guanosine replaces G
| Oligonucleotide | log2 enrichment |
| --- | --- |
| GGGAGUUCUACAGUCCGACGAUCUAACUUUAGAGGAGGAUCUGAUGGAUAUGGCAGUGGACGUGGAUUUGGGGAGGGCUAUAAUGGGUAUGGAGGAGGACCUGGAGGUGGCAAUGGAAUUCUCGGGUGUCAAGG | -0.0473 |
| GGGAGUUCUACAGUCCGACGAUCCCUGUGCUACACAUCGUAUGUACCGAAUCGGUUUUUUUGGGUUUUUUUGGGGUUUUUUUGGAAAGUAUUAUGUUACGCCGUUCGGAUCUGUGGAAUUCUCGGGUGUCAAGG | 0.824 |
| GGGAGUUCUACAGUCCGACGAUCUGCUGUGCAGCGGCAUCGGCCCACUGUGGUGGAAUGUCUACGGGAAACUGAUGCCUCCCUCAGCCGGUGAGCAGUGAUAGAGGGGACAGGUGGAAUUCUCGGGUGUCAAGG | -0.825 |
| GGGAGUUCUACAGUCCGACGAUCUCCUGUGCUACACAUCGUAUGUACCGAAUCGGGUUUUUGGGAAAAAGGGAAAAAAAGGGAAAGUAUUAUGUUACGCCGUUCGGAUCUGCAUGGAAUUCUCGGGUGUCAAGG | -0.526 |
| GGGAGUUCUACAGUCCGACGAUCGUCCUGUGCUACACAUCGUAUGUACCGAAUCGGGGAAAAAGGGGUGGGGAAAAAGGGGAAAGUAUUAUGUUACGCCGUUCGGAUCUGCACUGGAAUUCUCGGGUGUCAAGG | -0.231 |
| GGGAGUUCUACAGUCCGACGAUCCAAGUCCUGUGCUACACAUCGUAUGUACCGAAUCGGAAAAAGGUUUGGAAAAAGGAAAGUAUUAUGUUACGCCGUUCGGAUCUGCACUUCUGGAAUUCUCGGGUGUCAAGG | -1.32 |
| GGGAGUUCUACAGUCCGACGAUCACCAUGCAGGUGGGCAUCUUUGGGAAGUGGGGCAAGGGGGGGAUAGGGAGGGGGGUAACACUUUGGGAACAGGUGGUCCCAAAUCGUUUCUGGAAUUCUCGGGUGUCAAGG | 0.39 |
| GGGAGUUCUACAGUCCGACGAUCUAACUUUAGAGGAGGAUCUGAUGGAUAUGGCAGUGGACGUGGAUUUGGGGAUGGCUAUAAUGGGUAUGGAGGAGGACCUGGAGGAGGCAAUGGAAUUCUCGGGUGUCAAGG | 0.074 |

A few entries again (sample 3):
| Oligonucleotide | fitted relative affinity [z-score] |
| --- | --- |
| TTAAGTATCCTTCTCCTTTAGTGCTAG | 8.23 |
| TTAGATTCCAGTTTCGATTCGTGCTAG | 6.39 |
